Measurements gathered from unrelated publications.
Each numbered part is a random draw from the data of one study; scales do not carry over between parts. Changes are numbered by the printed parent chain.

Series 1 — technique: RNA Bind-n-Seq; molecule type: RNA; matrix: in vitro; tested at: 365 nM; reference: no-protein control; reading: higher = stronger binding; measurement: RBNS enrichment (R)
Target: RNA binding protein fox-1 homolog 2, RRM domain, GST-SBP tag (RBFOX2, Homo sapiens, UniProt O43251-10, residues 100-194)
Setting: natural RNA segment, single round, ends assumed
Residues (chain): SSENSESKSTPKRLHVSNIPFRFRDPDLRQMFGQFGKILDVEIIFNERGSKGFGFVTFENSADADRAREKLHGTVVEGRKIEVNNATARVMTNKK
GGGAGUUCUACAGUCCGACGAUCAAAAAACUCAGAUAUCCUAUACAACCUUUGCUUGUUCUUUUUAUUCUGGUAUCUAAAUACUGAGAAGUUCAUUUAUAAUUCAGCCUUGACUUGAAAACAUAGAUAGUUUAUGGAAUUCUCGGGUGCCAA: 3.77
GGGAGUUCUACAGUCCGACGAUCUGAUGGUCUUGUAAUCUGAUUUUCUGCAGUCAUACCCCGAGAAAGAAAUUCAAGAAAAAAUGACAUUAAAUCAUCUGUGCAUUUCAUAUACAGGAGAGUUAUCUCCUUCCUGGAAUUCUCGGGUGCCAA: 0.42
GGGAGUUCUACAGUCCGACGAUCUUUUUUUCCUCUCUUUUUCAGUUAUGAAACUUGUAUGCAUGGAUUUCACAUCUCCAUAGCUAGACCCGCCAUGGGCAUUAUGACCGUGUCUCCUAAAGGGUCGGUUUUGUUGGAAUUCUCGGGUGCCAA: 0.424
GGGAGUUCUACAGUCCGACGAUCUUGGUCACCUCUUUACUGUAAAUACUAUUGAAAAAAGGAGCGUAGCAUUUGCAUAGCAGGGAUUGUGCCUGUAUCUACUGUGUCCAUUUUGUUUUUUCGGAUGUUUUCUGUGGAAUUCUCGGGUGCCAA: 1.13
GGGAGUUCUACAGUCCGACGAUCCCACAGGAGCUGGAGUGAAGGUCUCUCCCCUUCCGCCGAGCCCGUCUGCCAGAGAGUGUCAGCUCUGUCAUCCACCAUAUUUCGACAGCCGCUCCUUGCUGCUACACGGGUGGAAUUCUCGGGUGCCAA: 0.26
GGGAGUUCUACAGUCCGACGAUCGUAUUGCUCUUUCAUCUUAAACACUUUCGAGGAUUUGCAGUGCGUCUAGCACCUAGAUUACAGCCAGGAACAUUGGUUAAGAACUGUUGGAAACAAAACUAAAAGCAAACUGGAAUUCUCGGGUGCCAA: 0.221
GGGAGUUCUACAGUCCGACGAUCAAAUGGUUAAAUAUCAAAUGCUGCUGCUGCUGCCAAAAUUAUAUUAAUAGCGAGUUUCUGGCCCCUGGGCAAUUUUGUACCUUGUAAUUAUCCUAUGGUGAUGCUGUUUCUGGAAUUCUCGGGUGCCAA: 0.757
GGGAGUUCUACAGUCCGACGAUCUGACUGGGCUGGUCCCUCUCAUUUGUACAGUCUGAAUGACAGUUCUUCUUAUCAUUCAGACGUCCCUCCAGAUGCCCAGGGUGAGUGUAACAUUUACCCACAACCUGGCUUGGAAUUCUCGGGUGCCAA: 0.194

Series 2 — target: HLF, bZIP domain (human); technique: DHFR protein complementation; matrix: yeast; reference: wild-type JUN-FOS pair; reading: higher = stronger binding; measurement: binding fitness
Setting: single substitutions, most at no-binding floor
Parent: JUN, bZIP domain (human); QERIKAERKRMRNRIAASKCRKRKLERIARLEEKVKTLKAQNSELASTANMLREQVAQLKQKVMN; partner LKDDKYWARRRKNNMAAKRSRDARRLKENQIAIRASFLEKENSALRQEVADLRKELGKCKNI
E32Q: -1.49 natural log
R30I: -1.49 natural log
E32Y: -1.47 natural log
V35T: -1.2 natural log
E33V: -1.44 natural log
K34Q: -1.46 natural log
A40I: -1.29 natural log
A46V: -1.44 natural log
L31T: -1.49 natural log
A40N: -1.39 natural log
A57V: -1.51 natural log
S47W: -1.43 natural log
A49L: -1.4 natural log
E33F: -1.47 natural log
N42V: -1.49 natural log
Q55G: -1.44 natural log
A57Q: -1.39 natural log
K39Y: -1.32 natural log
L45W: -1.52 natural log
R30G: -1.37 natural log
I28D: -1.45 natural log
T48C: -1.46 natural log
L45V: -1.52 natural log
A40D: -1.06 natural log
R53P: -1.56 natural log

Series 3 — technique: protein-binding microarray; molecule type: double-stranded DNA, one strand shown; matrix: in vitro; tested at: 2540 nM top; setting: 60-bp whole probe; with: salmon DNA 0.4 mg/ml; reference: random background probes; reading: higher = stronger binding; measurement: fitted relative affinity; constant ends, left off below: GCCTAGCAC … GTCTTGATTCGCTTGACGCTGCTG
Target: Interferon regulatory factor 3, full length, phosphomimetic (IRF3, Homo sapiens, UniProt Q14653, residues 1-427, S386D/S396D/S398D/S402D/T404D/S405D)
Target sequence (chain): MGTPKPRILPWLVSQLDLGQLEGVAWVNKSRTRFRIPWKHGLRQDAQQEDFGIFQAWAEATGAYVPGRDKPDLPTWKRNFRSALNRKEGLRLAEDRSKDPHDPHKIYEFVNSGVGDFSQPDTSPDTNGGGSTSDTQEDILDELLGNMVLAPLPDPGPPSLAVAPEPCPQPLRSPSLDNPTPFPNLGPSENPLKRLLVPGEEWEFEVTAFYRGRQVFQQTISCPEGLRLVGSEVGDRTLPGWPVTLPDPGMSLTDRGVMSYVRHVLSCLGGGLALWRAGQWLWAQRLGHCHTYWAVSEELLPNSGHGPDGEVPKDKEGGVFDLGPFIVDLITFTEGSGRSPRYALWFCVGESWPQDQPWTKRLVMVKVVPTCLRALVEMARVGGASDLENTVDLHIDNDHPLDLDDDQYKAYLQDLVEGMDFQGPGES
GACAGTCTCCTTATCCTGACGTGCTAG: 3.46 z-score
TCAATTTTGCTTTCATTACTGTGCTAG: 2.33 z-score
GGACGGCAGTGCACACAGTGGTGCTAG: -0.683 z-score
TCAGAACTGTTTCTTGAACTGTGCTAG: 0.796 z-score
GTCGATTTCAGACTGGAGACGTGCTAG: 1.97 z-score
TTAGAACTTAGACTGGATTAGTGCTAG: -0.612 z-score
TCACGTCTGAGCTCCGTACTGTGCTAG: -0.39 z-score
GACGAACTGAGTATCGACACGTGCTAG: 0.232 z-score
GAAGGTATCGGTCTCGGGACGTGCTAG: 3.99 z-score
TTAGGACTGGGTATCGGTTGGTGCTAG: -0.123 z-score
TTAGGTTCCCCTTTCCTTTAGTGCTAG: 5.29 z-score
GACGTACTGAGTATCGAGACGTGCTAG: -0.159 z-score
ACCGCATTCGAATTCAGAATGTGCTAG: 1.67 z-score
GACGGTAGCGGGTATCGGGACGTGCTA: -0.317 z-score
TTAGAACTAAGTCTCGATTAGTGCTAG: -0.139 z-score
TCATATATTTTAATCACACTGTGCTAG: 0.499 z-score
GACGGGCTGCTACTGCTGACGTGCTAG: -1.05 z-score
TTAGGTATCGGTATCTGTTAGTGCTAG: 4.13 z-score
GACGATTTCAGTTCCGAGAGGTGCTAG: 2.92 z-score

Series 4 — technique: DHFR PCA, deep sequencing; matrix: yeast; with: (+)-ABA 58 µM; reference: wild-type fitted maximum; reading: higher = stronger binding; measurement: relative binding score
Target: ABI1, truncated, D143A, DHFR fusion (Arabidopsis thaliana)
Setting: methotrexate growth selection, single substitutions
Parent: PYL1, truncated, DHFR fusion (Arabidopsis thaliana); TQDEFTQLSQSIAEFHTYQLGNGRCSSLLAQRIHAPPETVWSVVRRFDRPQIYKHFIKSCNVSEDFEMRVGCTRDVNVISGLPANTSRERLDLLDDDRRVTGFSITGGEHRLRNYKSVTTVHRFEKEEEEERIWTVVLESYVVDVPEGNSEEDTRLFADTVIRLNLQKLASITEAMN; partner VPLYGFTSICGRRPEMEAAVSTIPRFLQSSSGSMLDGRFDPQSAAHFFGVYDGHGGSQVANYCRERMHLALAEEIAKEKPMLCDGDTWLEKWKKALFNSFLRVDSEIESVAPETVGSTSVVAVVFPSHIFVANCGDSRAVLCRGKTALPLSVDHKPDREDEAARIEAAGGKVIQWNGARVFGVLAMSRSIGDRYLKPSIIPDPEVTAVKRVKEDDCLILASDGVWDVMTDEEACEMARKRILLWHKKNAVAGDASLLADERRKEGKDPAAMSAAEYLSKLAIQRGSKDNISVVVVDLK
C60L: 32.7%
V142I: 82.1%
S42W: 49.5%
Y115I: -0.502%
R113G: 69.8%
N114A: 45.4%
H122Y: 16%
R46I: 25.2%
V121P: 7.71%
D159M: 12.9%
L138C: 63.1%
T86G: 75.1%
L82C: 52.9%
I172G: 17.9%
G148K: 50.7%
Q7M: 101%
E89D: 31.9%
F103M: 61.7%
E130L: 90.8%
C72R: 55.9%
E147N: 76.6%
V43G: -15.3%
E152P: 54.1%
H55E: 82%
D97N: 92.7%

A few entries again (series 4):
R46I: 25.2%
V121P: 7.71%
D159M: 12.9%
L138C: 63.1%
T86G: 75.1%
L82C: 52.9%
I172G: 17.9%
G148K: 50.7%
Q7M: 101%
